Published values of several laboratories.
A part holds a random share of what one study measured. Changes are numbered by the printed parent chain.

Set 1
Target: ABI1, truncated, D143A, DHFR fusion (Arabidopsis thaliana)
Method: DHFR PCA, deep sequencing
Medium: yeast
Setting: methotrexate growth selection, single substitutions
Added: (+)-ABA 4.8 µM
Reference: wild-type fitted maximum
Direction: higher = stronger binding
Parent: PYL1, truncated, DHFR fusion (Arabidopsis thaliana); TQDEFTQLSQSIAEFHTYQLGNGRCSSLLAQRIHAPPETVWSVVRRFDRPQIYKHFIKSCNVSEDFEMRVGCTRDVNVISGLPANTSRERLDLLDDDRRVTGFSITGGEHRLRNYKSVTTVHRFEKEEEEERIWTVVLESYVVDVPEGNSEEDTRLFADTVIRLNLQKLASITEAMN; partner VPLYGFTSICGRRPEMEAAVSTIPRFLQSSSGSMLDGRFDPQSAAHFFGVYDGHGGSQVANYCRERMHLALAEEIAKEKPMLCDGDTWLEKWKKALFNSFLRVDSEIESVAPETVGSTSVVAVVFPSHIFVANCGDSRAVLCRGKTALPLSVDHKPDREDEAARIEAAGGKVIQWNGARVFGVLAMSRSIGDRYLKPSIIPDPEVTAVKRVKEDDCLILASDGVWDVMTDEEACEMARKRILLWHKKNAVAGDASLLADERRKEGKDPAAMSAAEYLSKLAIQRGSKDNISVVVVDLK
Under “relative binding score”, `N61E` is recorded as 79.3%.
Under “relative binding score”, `I133H` is recorded as 76.2%.
For `F5Y`, “relative binding score” read 62.6%.
Under “relative binding score”, `N22Y` is recorded as 69.3%.
Under “relative binding score”, `L29D` is recorded as -3.31%.
`L169G` — result for “relative binding score”: -5.11%.
For `H34Q`, “relative binding score” read 72.9%.
For `N22L`, “relative binding score” read 67.6%.
`H110G`: “relative binding score” 6.35%.
For `G23P`, “relative binding score” read 0.611%.
Under “relative binding score”, `E125T` is recorded as 78.3%.
For `A30G`, “relative binding score” read 56.2%.
For `V44P`, “relative binding score” read -8.42%.
For `T6D`, “relative binding score” read 77.7%.

Set 2
Target: Centromere-binding protein 1, full length, N-terminal tag (CBF1, Saccharomyces cerevisiae, UniProt P17106, residues 1-351)
UniProt P17106, sequence (whole entry, looked up): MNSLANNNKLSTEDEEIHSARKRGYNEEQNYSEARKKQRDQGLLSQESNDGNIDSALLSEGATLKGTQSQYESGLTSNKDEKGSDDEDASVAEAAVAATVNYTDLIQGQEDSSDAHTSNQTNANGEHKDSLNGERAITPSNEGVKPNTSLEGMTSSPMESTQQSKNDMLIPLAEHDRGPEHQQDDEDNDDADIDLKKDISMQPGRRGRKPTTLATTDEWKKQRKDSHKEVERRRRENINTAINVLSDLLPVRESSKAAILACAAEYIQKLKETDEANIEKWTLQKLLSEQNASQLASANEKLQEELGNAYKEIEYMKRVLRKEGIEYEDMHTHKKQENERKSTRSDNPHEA
Method: protein-binding microarray
Form: double-stranded DNA, one strand shown
Medium: in vitro
Concentration: 0.8 µM
Setting: whole 60-bp probe, no competitor
Direction: higher = stronger binding
The fluorescence intensity of `CTAATAATCAGCTCTGTCGTGACTGATAAATGCTTCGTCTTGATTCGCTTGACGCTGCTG` is reported as 1050 a.u.
For `GAAAGATTACTCGTGCACGCAAAAATAAATGTTTAGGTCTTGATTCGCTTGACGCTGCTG`, the fluorescence intensity was 816 a.u.
`GAAAGGTTCTATCCCCATGTGCCTCGTCATCGGTAGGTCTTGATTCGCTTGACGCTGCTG` gave a fluorescence intensity of 621 a.u.
`CTAACGACTTCTTATCACGTATAGGAGTGATATTTCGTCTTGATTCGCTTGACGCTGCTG` has a fluorescence intensity of 550 a.u.
The fluorescence intensity of `CTAATCGCTAGAAAATACGTGCGCGTTGCCAAATTCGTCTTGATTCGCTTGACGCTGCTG` is reported as 540 a.u.
For `CTATACAAGTTCAATGGTGGTGCAAGGATTGAATTCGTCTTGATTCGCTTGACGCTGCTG`, the fluorescence intensity was 536 a.u.
For `CTATGCGCCGGGTGATGCGTGACGCGTTTTTGGTTCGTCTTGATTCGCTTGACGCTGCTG`, the fluorescence intensity was 978 a.u.
The fluorescence intensity of `GAATAAGGATTGGATCAGGTGCTTACAAATTTTTAGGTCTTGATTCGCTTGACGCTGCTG` is reported as 1490 a.u.
`GAAACGTTAATGTCTCATGTGACTGAGCTGCAGTAGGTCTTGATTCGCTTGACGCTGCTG` has a fluorescence intensity of 1910 a.u.
For `GAAACAAAAGCAAATCACATGTGCACATACGTCTAGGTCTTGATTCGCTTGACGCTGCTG`, the fluorescence intensity was 4150 a.u.
For `TGTACGAAGCTATGTCATGCGCGTATAGTAGTTAGGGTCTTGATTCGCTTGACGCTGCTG`, the fluorescence intensity was 611 a.u.
With `GAACTTTACAATAGTCAGATCACGTTCTGTGGCTAGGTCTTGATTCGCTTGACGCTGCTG` the fluorescence intensity was 2510 a.u.
The fluorescence intensity of `CTAAAGTCCATCCTTCACATGACTTGAATCCCTTTCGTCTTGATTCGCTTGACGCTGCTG` is reported as 1570 a.u.
`GAAGCTTTTAATTATCACGTTGCCACTTTAACATAGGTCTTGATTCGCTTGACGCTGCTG` gave a fluorescence intensity of 2360 a.u.
For `CTAAATAAATAACACGTGCTCATAAAAAATCAATTCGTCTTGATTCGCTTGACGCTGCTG`, the fluorescence intensity was 16800 a.u.
For `GAAGTTCTTTAACATGTGATGAGTTATATCTTGTAGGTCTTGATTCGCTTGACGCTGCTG`, the fluorescence intensity was 2870 a.u.
`CTATCCATGACGTTCTACGTGGTTCTCTTGGTCTTCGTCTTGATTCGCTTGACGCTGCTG` has a fluorescence intensity of 514 a.u.
With `CTATACAAATTCCCTGATGCTAACTATTTGTTATTCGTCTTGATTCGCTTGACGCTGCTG` the fluorescence intensity was 504 a.u.
`GAATGTTTATTGTGTGGTGTGGTTTGACGCACATAGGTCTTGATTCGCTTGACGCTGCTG` gave a fluorescence intensity of 542 a.u.

Set 3
Target: Sal-like protein 4, full length isoform B (SALL4, Homo sapiens, UniProt Q9UJQ4-2, residues 1-616)
Method: universal PBM
Form: double-stranded DNA, one strand shown
Medium: in vitro
Concentration: not given
Setting: 8-mer, flanks averaged, mean of replicates
Direction: higher = stronger binding
For `AGCCATGC`, the E-score was -0.0673.
For `CGCCCTTA`, the E-score was -0.089.
With `CACGAGCG` the E-score was -0.211.
With `AATAAAGA` the E-score was 0.295.
With `ACTAGATA` the E-score was 0.288.
`CACTGCAG` gave an E-score of -0.0935.
`GGTACTAC` has an E-score of 0.0554.
For `ACTAACCC`, the E-score was -0.169.
The E-score of `CGGTACAC` is reported as -0.25.
With `CCGAACGG` the E-score was -0.333.
For `CAGAAACG`, the E-score was 0.0196.
For `ACCATCGC`, the E-score was -0.0672.
For `AGTGTGTA`, the E-score was 0.0402.
`CCTCCGAC` gave an E-score of -0.281.
`GACTCCTA` gave an E-score of -0.2.
`ACTCGCCA` gave an E-score of -0.0721.
With `ATGGGAGC` the E-score was -0.156.
`AGAACATC` has an E-score of -0.0187.
The E-score of `ATGCATTA` is reported as 0.292.
With `TGCTCGAA` the E-score was -0.0209.
`AAGACTAA` gave an E-score of 0.0568.
The E-score of `AGTAACCC` is reported as -0.0829.
`ACAAATGA` has an E-score of 0.308.
`AAAATCAC` has an E-score of 0.123.
The E-score of `GGGCCGCA` is reported as -0.304.

Set 4
Target: CCNE1, cyclin fold, Cln2 fusion (human)
Method: yeast growth competition, sequencing
Medium: yeast
Setting: strong parent motif
Reference: not given
Direction: higher = stronger binding
Parent: CDKN1A docking peptide (human); SKACRRLFGPVDS
`D12N` — result for “normalised enrichment score”: 4.98.
`A3N`: “normalised enrichment score” 0.188.
`D12S` — result for “normalised enrichment score”: 4.12.
`L7Q`: “normalised enrichment score” 0.194.
Under “normalised enrichment score”, `G9V` is recorded as 5.23.
Under “normalised enrichment score”, `P10L` is recorded as 3.38.
Under “normalised enrichment score”, `L7C` is recorded as 0.0542.
`P10S` — result for “normalised enrichment score”: 5.81.
`A3P`: “normalised enrichment score” 2.64.
`D12H`: “normalised enrichment score” 4.28.
For `P10R`, “normalised enrichment score” read 3.43.
Under “normalised enrichment score”, `D12P` is recorded as 4.76.
`A3D`: “normalised enrichment score” 0.102.
For `L7S`, “normalised enrichment score” read -0.0264.
`R5K`: “normalised enrichment score” 2.33.
For `R5N`, “normalised enrichment score” read 0.119.
For `R6Y`, “normalised enrichment score” read 1.77.
`V11G`: “normalised enrichment score” 6.01.
For `K2E`, “normalised enrichment score” read 4.1.
`R6H` — result for “normalised enrichment score”: 1.57.
For `G9T`, “normalised enrichment score” read 5.63.
`G9H`: “normalised enrichment score” 5.46.
For `P10C`, “normalised enrichment score” read 4.65.

Set 5
Target: Histone acetyltransferase KAT6A, winged helix 1, GST fusion (KAT6A, Homo sapiens, UniProt Q92794, residues 1-85)
Method: protein binding microarray
Form: double-stranded DNA, one strand shown
Medium: in vitro
Concentration: not given
Setting: 8-mer, flanks averaged, mean of 2 arrays, mostly near background
Reference: not given
Direction: higher = stronger binding
Construct (chain): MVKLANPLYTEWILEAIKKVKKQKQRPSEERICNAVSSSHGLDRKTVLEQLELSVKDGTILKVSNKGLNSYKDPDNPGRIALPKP
`ACTTGTAG` has an E-score of -0.0937.
`ATCTAGCA` gave an E-score of -0.18.
`GGATGCGA` gave an E-score of 0.142.
With `AGTTTCAT` the E-score was -0.0825.
`AATCGAAG` has an E-score of -0.159.
The E-score of `GACGAATA` is reported as -0.0716.
The E-score of `CACCCGAG` is reported as -0.0172.
The E-score of `ATTAGTTG` is reported as -0.116.
`CATGCAGA` has an E-score of -0.147.
`CGATCCTC` has an E-score of -0.108.
`AAAGGCCT` has an E-score of -0.0417.
`AAGCTCAG` has an E-score of -0.213.
`TCTTACAA` has an E-score of -0.12.
`CGAGGTTC` has an E-score of 0.00618.
The E-score of `AGAATATA` is reported as -0.0921.
With `CTACACTC` the E-score was -0.0844.
`ATCTCGTG` has an E-score of -0.216.
With `GCGATTGA` the E-score was 0.0515.
`GACTTACA` has an E-score of -0.142.
The E-score of `AGGAGACC` is reported as -0.135.

Some of these lines once more (set 1):
For `F5Y`, “relative binding score” read 62.6%.
Under “relative binding score”, `N22Y` is recorded as 69.3%.
Under “relative binding score”, `L29D` is recorded as -3.31%.
`L169G` — result for “relative binding score”: -5.11%.
For `H34Q`, “relative binding score” read 72.9%.
For `N22L`, “relative binding score” read 67.6%.
`H110G`: “relative binding score” 6.35%.
For `G23P`, “relative binding score” read 0.611%.
Under “relative binding score”, `E125T` is recorded as 78.3%.
For `A30G`, “relative binding score” read 56.2%.
For `V44P`, “relative binding score” read -8.42%.
